Published values of several laboratories.
Each numbered part is a random draw from the data of one study; scales do not carry over between parts. Changes are numbered by the printed parent chain.

Sample 1 — technique: DHFR PCA, deep sequencing; sample: yeast; added: (+)-ABA 17 µM; baseline: wild-type fitted maximum; direction: higher = stronger binding
Target: ABI1, truncated, D143A, DHFR fusion (Arabidopsis thaliana)
Notes: methotrexate growth selection, single substitutions
Starting sequence: PYL1, truncated, DHFR fusion (Arabidopsis thaliana); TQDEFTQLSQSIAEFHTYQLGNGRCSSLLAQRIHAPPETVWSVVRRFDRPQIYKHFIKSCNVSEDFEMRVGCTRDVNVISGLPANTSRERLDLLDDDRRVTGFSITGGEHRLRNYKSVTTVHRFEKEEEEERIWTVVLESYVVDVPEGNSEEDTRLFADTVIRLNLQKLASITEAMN
Change	relative binding score [%]
V62C	60.4
V143C	77.6
E89H	17.2
T1C	83.4
L138Y	41.2
R98P	-4.34
T154P	-2.67
L166E	-8.23
L29M	67.3
I79F	83.3
Y53K	2.05
G148D	62.5
F124V	99.2
T135M	4.17
L93E	60.6
E38H	57.2

Sample 2 — technique: universal PBM; molecule type: double-stranded DNA, one strand shown; sample: in vitro; tested at: 600 nM; direction: higher = stronger binding
Target: Sal-like protein 4, full length isoform A (SALL4, Homo sapiens, UniProt Q9UJQ4, residues 1-1053)
Chain of UniProt Q9UJQ4 (whole entry, looked up): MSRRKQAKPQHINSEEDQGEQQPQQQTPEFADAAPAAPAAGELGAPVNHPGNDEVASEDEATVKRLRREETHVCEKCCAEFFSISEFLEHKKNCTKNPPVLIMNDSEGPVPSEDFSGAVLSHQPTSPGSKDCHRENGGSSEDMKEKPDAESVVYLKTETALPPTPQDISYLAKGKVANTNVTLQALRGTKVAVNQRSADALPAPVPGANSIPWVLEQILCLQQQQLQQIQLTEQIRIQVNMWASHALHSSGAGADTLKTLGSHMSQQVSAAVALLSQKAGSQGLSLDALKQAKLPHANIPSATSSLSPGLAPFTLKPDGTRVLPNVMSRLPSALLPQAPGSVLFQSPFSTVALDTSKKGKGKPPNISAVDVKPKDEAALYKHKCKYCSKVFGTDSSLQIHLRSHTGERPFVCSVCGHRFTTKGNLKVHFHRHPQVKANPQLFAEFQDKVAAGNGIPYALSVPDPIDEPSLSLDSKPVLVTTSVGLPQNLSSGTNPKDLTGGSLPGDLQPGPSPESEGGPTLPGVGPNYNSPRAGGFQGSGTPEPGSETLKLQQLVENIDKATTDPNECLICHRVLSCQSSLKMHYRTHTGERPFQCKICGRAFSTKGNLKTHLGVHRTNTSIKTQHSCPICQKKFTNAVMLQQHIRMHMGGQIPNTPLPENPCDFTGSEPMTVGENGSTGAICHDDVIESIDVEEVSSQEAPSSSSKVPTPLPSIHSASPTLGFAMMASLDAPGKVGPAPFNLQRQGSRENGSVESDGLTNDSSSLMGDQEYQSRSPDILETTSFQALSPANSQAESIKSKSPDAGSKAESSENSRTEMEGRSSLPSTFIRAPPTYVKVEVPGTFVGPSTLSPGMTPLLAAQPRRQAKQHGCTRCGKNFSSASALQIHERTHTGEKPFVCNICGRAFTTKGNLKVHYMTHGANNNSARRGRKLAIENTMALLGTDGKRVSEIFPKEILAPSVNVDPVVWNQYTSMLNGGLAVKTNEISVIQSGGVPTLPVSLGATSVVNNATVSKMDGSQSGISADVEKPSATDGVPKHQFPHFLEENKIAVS
Notes: 8-mer, flanks averaged, mean of replicates
Oligonucleotide	E-score
CTTGCGGC	-0.289
AAACCTAG	-0.0379
AAGAATTC	-0.0059
ATCAGAAG	0.0771
GGTAAGAC	-0.126
GGACCTCC	-0.364
CTTCGCTC	-0.278
ATTGCATA	0.239
GAAAACCC	-0.052
ACATCATA	0.302
TACTAGAA	0.177
AATGTTAA	0.303
ACTTTGGC	-0.125
GGGCCTAC	-0.355
TGCGACAA	0.0752
GTAGGTCA	-0.181
GGAGCCCA	-0.325
GACCTAGC	-0.0786
TGCCTAAA	-0.015
ATTTCCAA	0.209
AGTTGCGG	-0.0304
CCGATAAA	0.18

Sample 3 — technique: protein-binding microarray; molecule type: double-stranded DNA, one strand shown; sample: in vitro; tested at: 250 nM; notes: 60-bp whole probe; added: salmon DNA 0.4 mg/ml; baseline: random background probes; direction: higher = stronger binding; shared flanks, not repeated: GCCTAGCAC … GTCTTGATTCGCTTGACGCTGCTG
Target: Interferon regulatory factor 5, full length, phosphomimetic (IRF5, Homo sapiens, UniProt Q13568-2, residues 1-514, K96S/S451D/S453D/S456D/S462D)
Oligonucleotide	log fluorescence [z-score]
TTGGGTTTCGGGACTGGGTTAGTGCTA	4.76
GACGGTCTCCTCTTCCTGACGTGCTAG	-0.272
TTAGGTTTCGACTTTCGGTTTGTGCTA	10.5
TCAGTAAGCAAAAATGAACTGTGCTAG	0.24
TCAGCTTTGCCTTTTGCACTGTGCTAG	-0.0178
GACGAACTGGGGACTGGAGAGGTGCTA	-0.5
TAATTTTCATTTTCCAAATGGTGCTAG	3.24
GGCTGTTTGGTTCTTATCCTGTGCTAG	-0.162
TTAGGTAACGGGTTTCGGTTAGTGCTA	7.86
GGTCAGTCAGGTCACTTCTGGTGCTAG	-0.408
GACCGTTTCGGGTATCGGGACGTGCTA	7.43
ATGTTTTGAGTTTTCCTTCAGTGCTAG	1.06
ACGTAGAAGGAAGAAGCACGGTGCTAG	-0.242
CTCAAAGTCTTTTATGGTATTGTGCTA	0.647
GACGATTTCAGTATCGAGCCGTGCTAG	2.81
GACGGACTGGGTAACGGGACGTGCTAG	-0.376
ATAGGACTGGGTTTCGGTTAGTGCTAG	7.82
CCTAATTCTCTTTTCACTTTGTGCTAG	1.3
TCTCTTTCCTTCTTGATGCAGTGCTAG	1.53

Sample 4 — technique: protein binding microarray; molecule type: double-stranded DNA, one strand shown; sample: in vitro; tested at: not given; baseline: not given; direction: higher = stronger binding
Target: Histone acetyltransferase KAT6A, winged helix 1, GST fusion (KAT6A, Homo sapiens, UniProt Q92794, residues 1-85)
Notes: 8-mer, flanks averaged, mean of 2 arrays, mostly near background
Target sequence (chain): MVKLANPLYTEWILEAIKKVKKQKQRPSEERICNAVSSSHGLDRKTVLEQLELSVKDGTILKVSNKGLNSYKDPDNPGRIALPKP
Oligonucleotide	E-score
TAGTGCCA	-0.0579
GATATCGC	0.0541
GAGGCATA	-0.0238
AACACCGG	0.197
GCCCGGAC	0.233
AAGTGCGT	0.0564
AGTCTCGA	-0.183
AATGAACC	-0.147
CACTCCCG	0.167
CCTGGGAG	-0.0658
GCATGACA	-0.12
AGTGCTGA	-0.122
AGAGCTGA	-0.262
AGTTGTGC	-0.121
CTTCCAAG	-0.201
GTCCGGCA	0.144
AGGGTTAA	-0.162
AATCGGCA	0.178

Sample 5 — target: CCNB2, cyclin fold, Cln2 fusion (human); technique: yeast growth competition, sequencing; sample: yeast; notes: weak parent motif; baseline: not given; direction: higher = stronger binding
Starting sequence: E2F3 docking peptide (human); PPAKRRLELGESG; partner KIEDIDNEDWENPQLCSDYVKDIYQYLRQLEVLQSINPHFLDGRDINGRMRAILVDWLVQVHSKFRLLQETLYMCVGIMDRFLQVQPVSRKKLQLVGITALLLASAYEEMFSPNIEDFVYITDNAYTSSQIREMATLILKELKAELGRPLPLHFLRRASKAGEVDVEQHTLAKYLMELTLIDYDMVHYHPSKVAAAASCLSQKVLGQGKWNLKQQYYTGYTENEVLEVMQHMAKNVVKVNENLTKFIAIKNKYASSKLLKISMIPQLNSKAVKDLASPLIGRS
Change	normalised enrichment score
PAAKRRLELGESG [P2A]	0.26
PPAKRRAELGESG [L7A]	0.344
PPAARRLELGESG [K4A]	0.229
APAKRRLELGESG [P1A]	0.517
PPAKARAELGESG [R5A L7A]	0.123
PPAKRRLEFGESG [L9F]	1.08
PPAKKRLEFGESG [R5K L9F]	0.398
PPAKRRLELGASG [E11A]	0.562
PPAKRRLELGEAG [S12A]	0.573

Sample 6 — target: CRIPT, C-terminal peptide; technique: DHFR complementation, deep sequencing; sample: yeast; baseline: wild type; direction: higher = weaker binding
Notes: single substitutions, model-inferred values
Starting sequence: ERBIN, PDZ domain 1 (human); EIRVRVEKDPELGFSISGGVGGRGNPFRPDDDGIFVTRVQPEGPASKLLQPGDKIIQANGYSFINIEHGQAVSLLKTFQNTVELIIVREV; partner TKNYKQTSV
Change	binding free energy change [kcal/mol]
D53F	0.335
F27D	1.05
P44D	0.967
I16K	1.43
P44G	0.503
E7A	-0.0906
D31L	0.94
Q70K	0.0776
G33H	0.855
V36S	0.683
R5V	0.129
I56R	0.129
I56K	0.0698
K76R	-0.254
I66T	0.263
R23P	0.444
E11S	0.234
N59R	-0.0234
Q57P	0.867
E67P	0.0689
A45L	1.19
D30H	0.214
S73E	0.0665
I86L	0.00102
P10C	-0.394

Sample 7 — technique: EMSA with sequencing; molecule type: double-stranded DNA, one strand shown; sample: in vitro; tested at: 10 and 20 nM; baseline: negative control set to 0; direction: higher = stronger binding
Target: Hepatocyte nuclear factor 3-alpha (Foxa1, Mus musculus, UniProt P35582, residues 1-468, full length assumed)
Notes: whole designed probe, mean of two concentrations, ends assumed
Residues (chain): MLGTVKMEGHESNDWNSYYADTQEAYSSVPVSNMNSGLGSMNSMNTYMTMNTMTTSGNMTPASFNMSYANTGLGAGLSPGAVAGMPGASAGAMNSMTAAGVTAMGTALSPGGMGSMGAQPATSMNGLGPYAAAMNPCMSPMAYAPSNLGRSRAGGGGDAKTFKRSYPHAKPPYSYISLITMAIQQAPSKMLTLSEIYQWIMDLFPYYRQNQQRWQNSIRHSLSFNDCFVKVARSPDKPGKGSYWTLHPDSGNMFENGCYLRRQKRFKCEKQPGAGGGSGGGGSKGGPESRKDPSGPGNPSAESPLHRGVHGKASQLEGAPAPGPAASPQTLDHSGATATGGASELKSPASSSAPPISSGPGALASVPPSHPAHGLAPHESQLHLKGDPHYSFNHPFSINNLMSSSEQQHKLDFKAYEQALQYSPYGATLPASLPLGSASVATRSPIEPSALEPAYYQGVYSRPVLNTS
Oligonucleotide	normalised bound fraction
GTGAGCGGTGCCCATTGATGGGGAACTGTGAGCTTGTTTGTTCACTGAAAGCACTCATCATAAGCCTCATCAATATAAAAACTCTTGGTAGGACCAAGGGCAAACTAAGCTGAAGATCATGTTTGCATAGTTGTCCTGCAACTTACCAACGTAGTTCAGAATAGAGTATGTCAAACCACCTTATAAAAACTGGGGCATCTGAAGGCATAAAAGTGTTCATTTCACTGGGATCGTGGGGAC	0.335 ratio
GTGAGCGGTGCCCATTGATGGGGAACTGTGTTCAGTAAACTACATTTAAAAAAACTAGGAAAGACTATACTTTCAGGGGTCATTTCTATCTGAACAACCTGCTCCTGAATGACTAATGGGTAATTTATGAAATTAAGGCAGAAATAAACAAGTTCTTTGAAAACAGTGAGAACAAAGACACAACGTACCAAAATCTCTGGGACACAGCTAAAGCAGTGTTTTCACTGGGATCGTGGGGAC	0.0551 ratio
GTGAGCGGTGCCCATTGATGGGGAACGATGTTAGCAATCAAAATACTTTTCAAAACATCTGAGTCTACAGAGGCTGATTTGAGCACATCCGGAGAATTGGGCTCCAAAAATATTAAAAGTAATCTGGGACATAAATTGTATGGATATATTATTCTAAATATTCCCATCTTTTCTCTGTTGCAAGTTTGTGAATGTGGGTGGAATGGGCTTATTAATGGATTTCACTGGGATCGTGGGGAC	-0.0305 ratio
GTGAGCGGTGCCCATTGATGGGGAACGTCCAGAAACCTGTCACACTACTAATTTCAACCCCTTGGCCAGAGCTCAGGCACATGGCTGCACCTAGCTGCAAGGGAAGCTAGGAAGGTCTGAGATTATTCTGCACAGCCATGAACTCAGCTAAAAGCCAATCAAATATTTGTAAATAATCTAAACAATTTTAGATAGTGATGTATCCTGGGAAAGAACAAATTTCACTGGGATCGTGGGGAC	0.155 ratio
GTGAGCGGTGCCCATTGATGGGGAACATTTTATAAGACATCGAAGGAAAAAATGAAATTAGAATAAGCATTCTTTTGTTTTGTTTTGTTTAAGTAAGGAAAACAAAAATAGAAAGACAATGTAATCTTCAGTGGGGAAATGTAAGTATGAACACACGAGGAACCATCTGGGAAAGTGATCACAGGATATGATACAGCACATGAAAAAATACACAAATAGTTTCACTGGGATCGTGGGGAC	0.24 ratio
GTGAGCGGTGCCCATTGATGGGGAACCCACTTTCATATGCTTCTGTAAAACCATCAAGCTGAATCGAATTCTCTTCAGGTATTCTTATCTCCCCGTAACTTGCCTTTGGTTCAGTCTCCATGTTTACATTCCCTTTATTTACAGGACTCCGCCTTTTATCTTTCTTTTGAGCTAAAAAAAGCAACCTGGCTGGAGGTAATTATACTGAGAAATTCTTTATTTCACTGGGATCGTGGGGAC	0.319 ratio
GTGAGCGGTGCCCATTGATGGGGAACAACAGTAACATGGCAACAGCTTAAATAAATAAGACAGTACATTGTTTAAGAAACAACTAATGTTCTGAGGTTTCAGTGATAACAACCACAAAGTAATCTTGCAAGGTGGTAAGAAATACCTGGCATGAATGCCTTTTGTTAAAAGTTGAACCACAAGTGCATTTTTTTTTACACTCTACTGAAGTATTTTTGTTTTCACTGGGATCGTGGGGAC	0.336 ratio
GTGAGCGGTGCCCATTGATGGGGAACATCTTCCCCCTCTTCCTTGCCCCACCAGCTCACCTTCCCGGGTTATTTGCAGATAGGAAAATAAATAAAGCCGGCATTCGTTAACCCTCTTCACGCGCATACTGCTGTTTGCTCTGCATCTAACATGGTCCTTACGCGAGGCGTGGCTCCGGGAGAGCAAAGCACCGTGTCAGGCGCATGATCCGGGGTGGCCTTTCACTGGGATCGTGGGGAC	0.352 ratio

A few entries again (sample 4):
Oligonucleotide	E-score
AGAGCTGA	-0.262
CTTCCAAG	-0.201
CCTGGGAG	-0.0658
CACTCCCG	0.167
GTCCGGCA	0.144
GAGGCATA	-0.0238
AATGAACC	-0.147
AATCGGCA	0.178
AGTCTCGA	-0.183
TAGTGCCA	-0.0579
AACACCGG	0.197
AGTTGTGC	-0.121
